Published values collected from several papers.
Protocols differ between the studies behind these lines. Several values in a cell are separate wells, animals, samples, runs or records.
Target: Protein-tyrosine kinase 6 (PTK6, Homo sapiens, UniProt Q13882)

Structure (SMILES) | assay | system | setting | how to read | endpoint | result
O=C(Cc1ccc(OCc2ccccc2)cc1)NC1(C(=O)O)CCN(C(=O)c2ccc(-c3cccc(Cl)c3)cc2)CC1 | enzyme activity, inhibitor |  | 10 µM |  | activity vs control | 124%
COc1cc(Nc2nc(C)cc(-c3cnn4nc(OC)ccc34)n2)cc(C(F)(F)F)c1 | KINOMEscan |  | 1 µM, BRK | baseline: DMSO | remaining binding | 100%
O=C(Nc1ccc(Oc2ncnc3[nH]cc(-c4ccccc4)c23)c(F)c1)c1c2n(n(-c3cc(F)ccc3F)c1=O)CCCC2 | enzyme activity, inhibitor |  | 0.5 µM |  | inhibition | 14%
COc1c(Cl)cccc1Nc1c(-c2ccncc2C#C[C@@]2(C)CCCN2C(=O)/C=C/CN(C)C)[nH]c2c1C(=O)NCC2 | binding, competition with immobilised ligand |  | 3 µM |  | remaining binding | 91%
N[C@H]1CC[C@H](Nc2nccc(-c3cccnc3Oc3ccc(NC(=O)NC4CC4)c4ccccc34)n2)CC1 | kinobead competition pulldown | HEK293/HCT116 lysate mixture | 10 µM, 1 h, 4 °C | lower = stronger competition | log2 LFQ intensity | 21.6 and 20.4 and 19.8 and 21.5
CNC(=O)C1CCN(c2cc(C)c(F)cc2NC(=O)c2ccc(-c3cc(O)ccc3C)c(C)c2)CC1 | binding, competition with immobilised ligand |  | 1 µM |  | remaining binding | 86%
COc1ccc(NC(=O)Nc2ccc3c(c2)C(=O)N(C(C)CO)CC(C)C(CN(C)Cc2ccc4c(c2)OCO4)O3)cc1 (stereo not shown) | kinase activity, KinaseProfiler |  | 0.03 µM, species human | baseline: control | remaining activity | 106%
COc1c(OCCCN2CCOCC2)ccc2c1N=C(NC(=O)c1cnc(N)nc1)N1CCN=C21 | kinase activity, inhibitor |  | 1 µM | baseline: untreated control | remaining activity | 112%
CN1CCN(Cc2ccc(-c3ccc(CO[C@H]4CCC[C@@H]4NC(=O)c4cc(-c5cnn(C)c5)cnc4N)cc3)cc2)CC1 | enzyme activity, inhibitor |  | 0.1 µM |  | inhibition | 3%
CNC(=O)C[C@H](Cc1ccc(C#N)cc1)NC(=O)c1cc(-c2ccc(CN[C@H](C)c3ccc(C)cc3)o2)ccc1Cl | enzyme activity, inhibitor |  | 1 µM |  | activity vs control | 105%
Cc1cccc(O[C@H]2CCC[C@@H](C(C)CNCc3ccncc3)C2)c1 (relative stereo) | enzyme activity, inhibitor |  | 10 µM |  | inhibition | -10%
CNC1C[S+]2CC[S+]3CC[S+](C1)[Ru-4]321([N]=C=S)[n]2c3ccc(OC)cc3c3c4c(c5cc(F)c[n+]1c5c32)C(=O)NC4=O (stereo not shown) | KinomeScan |  | 0.1 µM | baseline: untreated | remaining binding | 100%
CC(C)=CC1OC(C)(C)C2C=C3C(=O)C(Cl)=CC(O)C3C3C(O)C4OC4C(=O)C132 (stereo not shown) | cell-free assay, competition with immobilised ligand |  | 10 µM |  | remaining binding | 96%
C=CC(=O)Nc1cccc(-c2cnc3[nH]cc(C(=O)NC(C)(C)C)c3n2)c1 | kinase activity |  | 0.1 µM |  | inhibition | 0% and 3%
NC(=O)[C@@H](O)C[C@H]1CCc2sc3ncnc(O[C@H]4CC[C@H](N5CCOCC5)CC4)c3c21 | enzyme activity, inhibitor |  | 10 µM |  | inhibition | 32%
C=CC(=O)N1CCc2ccc(-n3c(=O)ccc4cnc5ccc(-c6cnn(C)c6)cc5c43)cc21 | KINOMEscan |  | 1 µM | baseline: DMSO control | remaining binding | 97%
